Experimental data pooled from the literature.
Each line is one published result; not all experiments were run side by side.

For `CCOC(=O)N1CSCC1C(=O)O` (racemic), the inhibition was -0.679% (Replicase polyprotein 1ab, main protease (rep, Severe acute respiratory syndrome coronavirus 2, UniProt P0DTD1); reporter gene (mKate2), inhibitor; 20 µM).
`VPGLPGTILRTTNGD` gave a responding donors of 9% (human CD4 T cells; AIM; peptide).
For `CC[C@H](C)[C@H](NC(=O)[C@H](CC(C)C)NC(=O)[C@H](Cc1c[nH]c2ccccc12)NC(=O)[C@H](CCC(N)=O)NC(=O)[C@@H](NC(=O)[C@H](Cc1ccccc1)NC(=O)[C@H](C)NC(=O)[C@H](CCCCNC(=O)COCCOCCNC(=O)COCCOCCNC(=O)CC[C@H](NC(=O)CCCCCCCCCCCCCCCCCCC(=O)O)C(=O)O)NC(=O)[C@H](CCC(N)=O)NC(=O)[C@H](C)NC(=O)[C@@H](NC(=O)[C@H](CCCCN)NC(=O)[C@H](CC(=O)O)NC(=O)[C@H](CC(C)C)NC(=O)C(C)(C)NC(=O)[C@@H](NC(=O)[C@H](CO)NC(=O)[C@H](Cc1ccc(O)cc1)NC(=O)[C@H](CC(=O)O)NC(=O)[C@H](CO)NC(=O)[C@@H](NC(=O)[C@H](Cc1ccccc1)NC(=O)[C@@H](NC(=O)CNC(=O)[C@H](CCC(=O)O)NC(=O)C(C)(C)NC(=O)[C@@H](N)Cc1ccc(O)cc1)[C@@H](C)O)[C@@H](C)O)[C@@H](C)CC)[C@@H](C)CC)C(C)C)C(=O)N[C@@H](C)C(=O)NCC(=O)NCC(=O)N1CCC[C@H]1C(=O)N[C@@H](CO)C(=O)N[C@@H](CO)C(=O)NCC(=O)N[C@@H](C)C(=O)N1CCC[C@H]1C(=O)N1CCC[C@H]1C(=O)N1CCC[C@H]1C(=O)N[C@@H](CO)C(N)=O`, “ADA positive subjects at baseline” read 33.3% (healthy subjects, single ascending dose; 0.25 mg, baseline).
The inhibition of `Nc1ncnc2c([C@@H]3N[C@H](CO)[C@@H](O)[C@H]3O)c[nH]c12` is reported as 13.7% (Chikungunya virus; viral replication; HeLa, AF 15561; 0.4 µM).
Under “frequency of responding donors”, `KVAGFAKFL` is recorded as 50% (AIM; peptide, CD8+ T cells from PBMC, human donors; relative to: positive over tested donors).

Excerpt of the above:
The inhibition of `Nc1ncnc2c([C@@H]3N[C@H](CO)[C@@H](O)[C@H]3O)c[nH]c12` is reported as 13.7% (Chikungunya virus; viral replication; HeLa, AF 15561; 0.4 µM).
